Assay results of several laboratories.
A part holds a random share of what one study measured. “And” joins repeats or separate records; there may be more than shown.
Sequence of UniProt Q9UK32 (whole entry, looked up): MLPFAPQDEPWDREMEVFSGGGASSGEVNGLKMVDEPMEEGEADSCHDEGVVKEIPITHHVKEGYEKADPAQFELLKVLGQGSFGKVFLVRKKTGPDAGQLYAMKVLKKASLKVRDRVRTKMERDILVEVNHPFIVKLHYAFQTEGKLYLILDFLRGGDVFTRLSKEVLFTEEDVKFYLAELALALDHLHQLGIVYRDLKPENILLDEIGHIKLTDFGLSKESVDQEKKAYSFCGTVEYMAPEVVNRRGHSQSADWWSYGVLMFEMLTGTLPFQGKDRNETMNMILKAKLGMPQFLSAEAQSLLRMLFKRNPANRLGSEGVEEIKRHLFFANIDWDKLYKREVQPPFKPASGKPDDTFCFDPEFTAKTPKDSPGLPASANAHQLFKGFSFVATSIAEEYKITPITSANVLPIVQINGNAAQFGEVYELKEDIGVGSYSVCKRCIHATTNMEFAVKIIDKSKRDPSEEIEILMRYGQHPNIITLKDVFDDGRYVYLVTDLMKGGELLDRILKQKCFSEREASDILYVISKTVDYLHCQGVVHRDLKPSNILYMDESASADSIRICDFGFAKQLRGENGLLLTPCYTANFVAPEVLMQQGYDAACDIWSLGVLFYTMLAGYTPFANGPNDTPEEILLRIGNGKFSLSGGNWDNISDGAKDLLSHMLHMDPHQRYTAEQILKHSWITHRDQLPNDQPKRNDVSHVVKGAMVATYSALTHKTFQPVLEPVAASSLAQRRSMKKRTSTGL
Sequence of UniProt O75582 (whole entry, looked up): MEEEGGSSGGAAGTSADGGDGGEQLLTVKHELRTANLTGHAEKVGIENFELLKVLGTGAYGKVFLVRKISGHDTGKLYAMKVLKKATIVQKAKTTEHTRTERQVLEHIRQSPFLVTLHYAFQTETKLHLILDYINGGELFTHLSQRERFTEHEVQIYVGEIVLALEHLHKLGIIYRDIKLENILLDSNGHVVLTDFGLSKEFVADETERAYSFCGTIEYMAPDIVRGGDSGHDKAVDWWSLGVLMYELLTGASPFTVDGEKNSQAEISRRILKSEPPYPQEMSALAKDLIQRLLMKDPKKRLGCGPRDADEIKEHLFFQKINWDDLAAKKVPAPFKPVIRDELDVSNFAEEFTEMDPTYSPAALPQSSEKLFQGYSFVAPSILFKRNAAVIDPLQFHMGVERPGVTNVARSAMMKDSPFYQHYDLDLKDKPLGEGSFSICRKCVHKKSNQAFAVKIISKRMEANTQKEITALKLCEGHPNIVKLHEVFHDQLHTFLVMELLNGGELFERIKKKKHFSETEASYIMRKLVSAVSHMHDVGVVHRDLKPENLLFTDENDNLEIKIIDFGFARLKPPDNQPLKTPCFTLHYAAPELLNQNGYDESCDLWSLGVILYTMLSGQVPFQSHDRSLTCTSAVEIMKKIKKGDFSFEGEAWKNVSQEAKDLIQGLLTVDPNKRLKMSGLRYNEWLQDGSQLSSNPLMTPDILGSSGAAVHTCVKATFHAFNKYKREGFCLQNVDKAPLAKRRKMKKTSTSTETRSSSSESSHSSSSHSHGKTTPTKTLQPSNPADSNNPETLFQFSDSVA
Sequence of UniProt P54760 (whole entry, looked up): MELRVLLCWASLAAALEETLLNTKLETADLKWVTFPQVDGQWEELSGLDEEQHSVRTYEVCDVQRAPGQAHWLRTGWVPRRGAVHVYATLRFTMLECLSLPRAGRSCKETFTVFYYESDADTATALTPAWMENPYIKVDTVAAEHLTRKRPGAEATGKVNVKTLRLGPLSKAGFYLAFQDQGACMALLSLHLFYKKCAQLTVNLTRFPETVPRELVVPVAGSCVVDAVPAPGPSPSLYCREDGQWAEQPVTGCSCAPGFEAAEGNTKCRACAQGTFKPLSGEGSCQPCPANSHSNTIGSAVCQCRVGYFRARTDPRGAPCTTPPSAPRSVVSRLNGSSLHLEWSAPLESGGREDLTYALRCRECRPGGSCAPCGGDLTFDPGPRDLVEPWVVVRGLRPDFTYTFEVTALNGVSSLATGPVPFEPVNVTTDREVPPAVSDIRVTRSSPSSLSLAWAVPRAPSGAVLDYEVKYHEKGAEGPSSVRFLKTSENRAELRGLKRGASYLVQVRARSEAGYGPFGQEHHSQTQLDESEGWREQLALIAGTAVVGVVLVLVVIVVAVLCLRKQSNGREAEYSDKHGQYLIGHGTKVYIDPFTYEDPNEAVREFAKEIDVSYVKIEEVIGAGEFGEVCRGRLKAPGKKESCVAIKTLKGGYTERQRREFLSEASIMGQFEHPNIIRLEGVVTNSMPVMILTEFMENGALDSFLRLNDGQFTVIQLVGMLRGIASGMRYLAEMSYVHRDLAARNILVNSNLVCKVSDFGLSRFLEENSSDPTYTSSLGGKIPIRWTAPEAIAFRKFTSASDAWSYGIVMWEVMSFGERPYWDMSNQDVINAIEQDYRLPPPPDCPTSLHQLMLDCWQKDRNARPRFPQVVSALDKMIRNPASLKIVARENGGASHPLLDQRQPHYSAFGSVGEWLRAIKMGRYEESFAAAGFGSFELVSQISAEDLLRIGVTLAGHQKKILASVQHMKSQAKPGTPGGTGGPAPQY
Sequence of UniProt O15530 (whole entry, looked up): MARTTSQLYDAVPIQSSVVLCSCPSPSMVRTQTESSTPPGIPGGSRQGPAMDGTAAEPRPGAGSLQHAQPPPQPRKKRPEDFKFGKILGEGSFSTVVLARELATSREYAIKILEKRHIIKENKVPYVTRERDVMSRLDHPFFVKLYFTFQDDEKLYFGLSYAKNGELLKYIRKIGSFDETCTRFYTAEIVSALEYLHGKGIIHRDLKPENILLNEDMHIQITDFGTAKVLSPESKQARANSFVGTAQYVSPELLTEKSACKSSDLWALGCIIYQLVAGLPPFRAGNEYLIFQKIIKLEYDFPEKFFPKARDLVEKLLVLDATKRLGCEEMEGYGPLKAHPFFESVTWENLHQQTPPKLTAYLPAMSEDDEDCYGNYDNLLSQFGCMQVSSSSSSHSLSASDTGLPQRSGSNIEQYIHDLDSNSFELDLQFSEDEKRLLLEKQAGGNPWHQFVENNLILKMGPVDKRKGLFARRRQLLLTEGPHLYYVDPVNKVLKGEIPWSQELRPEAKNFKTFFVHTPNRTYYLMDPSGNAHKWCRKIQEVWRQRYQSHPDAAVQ
Sequence of UniProt P06493 (whole entry, looked up): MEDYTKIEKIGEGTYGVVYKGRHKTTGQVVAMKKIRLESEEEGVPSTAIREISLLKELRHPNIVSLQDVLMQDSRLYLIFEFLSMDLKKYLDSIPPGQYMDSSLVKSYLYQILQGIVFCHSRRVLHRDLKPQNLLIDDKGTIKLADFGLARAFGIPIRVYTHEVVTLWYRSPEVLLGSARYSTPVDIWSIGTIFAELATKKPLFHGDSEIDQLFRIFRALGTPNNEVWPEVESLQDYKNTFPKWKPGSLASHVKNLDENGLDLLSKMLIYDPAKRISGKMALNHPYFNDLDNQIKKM
Sequence of UniProt Q16644 (whole entry, looked up): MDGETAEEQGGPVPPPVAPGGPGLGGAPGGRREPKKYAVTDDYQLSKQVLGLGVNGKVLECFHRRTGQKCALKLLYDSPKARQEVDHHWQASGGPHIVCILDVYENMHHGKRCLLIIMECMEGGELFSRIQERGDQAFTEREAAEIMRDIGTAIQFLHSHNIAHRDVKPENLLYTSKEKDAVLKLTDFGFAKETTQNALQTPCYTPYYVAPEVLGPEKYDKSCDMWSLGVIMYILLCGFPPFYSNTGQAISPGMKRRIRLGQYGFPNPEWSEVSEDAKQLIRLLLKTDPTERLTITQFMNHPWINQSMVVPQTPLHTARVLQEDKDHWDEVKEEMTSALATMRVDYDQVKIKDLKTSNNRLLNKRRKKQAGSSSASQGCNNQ
Sequence of UniProt Q13554 (whole entry, looked up): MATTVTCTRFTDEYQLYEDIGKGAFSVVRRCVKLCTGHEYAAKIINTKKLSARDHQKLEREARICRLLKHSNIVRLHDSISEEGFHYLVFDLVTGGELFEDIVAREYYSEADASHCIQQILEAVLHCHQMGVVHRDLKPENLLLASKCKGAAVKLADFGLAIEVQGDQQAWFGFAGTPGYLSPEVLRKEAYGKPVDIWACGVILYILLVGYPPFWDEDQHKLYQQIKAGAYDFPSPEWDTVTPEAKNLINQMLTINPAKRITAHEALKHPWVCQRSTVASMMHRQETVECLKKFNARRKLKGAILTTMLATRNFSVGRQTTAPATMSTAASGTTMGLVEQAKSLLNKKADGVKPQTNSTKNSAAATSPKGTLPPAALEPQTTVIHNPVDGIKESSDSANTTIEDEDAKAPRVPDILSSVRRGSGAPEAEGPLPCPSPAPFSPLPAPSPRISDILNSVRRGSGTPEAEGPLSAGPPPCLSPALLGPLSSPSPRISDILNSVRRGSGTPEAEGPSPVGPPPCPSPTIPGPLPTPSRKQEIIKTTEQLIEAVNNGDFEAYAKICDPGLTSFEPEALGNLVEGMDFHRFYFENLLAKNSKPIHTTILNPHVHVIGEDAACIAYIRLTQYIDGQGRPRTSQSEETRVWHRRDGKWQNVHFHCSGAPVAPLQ

Set 1 — SMILES: Cc1ccc(S(=O)(=O)/C=C/C#N)cc1; effect on: enzyme activity; mode: inhibitor; concentration: 0.5 µM; reference: control
| target | remaining activity [%] |
| --- | --- |
| HIPK4 (Homo sapiens, UniProt Q8NE63) | 108 |
| RPS6KA6 (Homo sapiens, UniProt Q9UK32) | 95.4 |
| WNK3 (Homo sapiens, UniProt Q9BYP7) | 110 |
| Cyclin-dependent kinase 4, with cyclin D3 (CDK4, Homo sapiens, UniProt P11802) | 100 |
| Cyclin-dependent kinase 6, with cyclin D3 (CDK6, Homo sapiens, UniProt Q00534) | 104 |
| STK16 (Homo sapiens, UniProt O75716) | 88.3 |
| CAMK2B (Homo sapiens, UniProt Q13554) | 106 |
| STK17A (Homo sapiens, UniProt Q9UEE5) | 97.8 |
| Cyclin-dependent kinase 1, with cyclin B (CDK1, Homo sapiens, UniProt P06493) | 92.3 |
| SRMS (Homo sapiens, UniProt Q9H3Y6) | 98.8 |
| EPHA4 (Homo sapiens, UniProt P54764) | 86.1 |
| PDPK1 (Homo sapiens, UniProt O15530) | 102 |
| EPHB1 (Homo sapiens, UniProt P54762) | 100 |
| RPS6KA5 (Homo sapiens, UniProt O75582) | 109 |
| MAP4K4 (Homo sapiens, UniProt O95819) | 106 |
| TSSK2 (Homo sapiens, UniProt Q96PF2) | 103 |
| BLK (Homo sapiens, UniProt P51451) | 103 |
| PHKG1 (Homo sapiens, UniProt Q16816) | 95.8 |
| DYRK3 (Homo sapiens, UniProt O43781) | 101 |
| EPHB4 (Homo sapiens, UniProt P54760) | 102 |
| MAPKAPK3 (Homo sapiens, UniProt Q16644) | 97.8 |
| HIPK2 (Homo sapiens, UniProt Q9H2X6) | 83.9 |

Set 2 — Compound: CCOc1ccc(Nc2c3c(nc4ccccc24)CCC3)cc1; organism: Leishmania donovani; strain: DD8
| assay | test system | setting | inhibition |
| --- | --- | --- | --- |
| parasite killing | promastigotes | 0.33 µM, 96 h | 13% and 10% and 20% |
| parasite killing | intracellular amastigotes | 4 µM, 96 h | 94% and 69% and 97% |
| parasite killing | intracellular amastigotes | 0.4 µM, 24 h | 11% and 9% and 14% |
| parasite viability, resazurin | promastigotes | 0.66 µM | 8% and 10% and 20% and 25% and 24% and 4% |
| parasite killing | promastigotes | 33.33 µM, 96 h | 100% |
| parasite viability, resazurin | promastigotes | 33.33 µM | 100% |
| parasite killing | promastigotes | 3.33 µM, 96 h | 69% and 71% and 68% |
| parasite killing | intracellular amastigotes | 0.8 µM, 72 h | 53% and 57% and 58% |
| parasite killing | promastigotes | 33.33 µM, 48 h | 100% |
| parasite killing | promastigotes | 16.66 µM, 48 h | 98% and 97% |

Set 3 — effect on: ligand displacement; concentration: 10 µM
Target: Histamine H4 receptor (HRH4, Homo sapiens, UniProt Q9H3N8)
Sequence of UniProt Q9H3N8 (whole entry, looked up): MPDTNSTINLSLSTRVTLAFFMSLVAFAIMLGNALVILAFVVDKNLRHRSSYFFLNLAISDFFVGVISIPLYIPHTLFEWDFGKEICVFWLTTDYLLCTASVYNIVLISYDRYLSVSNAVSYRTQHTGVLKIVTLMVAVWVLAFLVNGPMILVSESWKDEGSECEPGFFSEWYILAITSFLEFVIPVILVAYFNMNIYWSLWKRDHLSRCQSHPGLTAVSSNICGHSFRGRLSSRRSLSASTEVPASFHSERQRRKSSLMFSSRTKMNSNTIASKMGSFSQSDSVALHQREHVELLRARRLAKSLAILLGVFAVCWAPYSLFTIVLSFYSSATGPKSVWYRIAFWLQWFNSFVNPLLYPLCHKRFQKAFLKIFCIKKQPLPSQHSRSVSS
| Structure (SMILES) | inhibition [%] |
| --- | --- |
| COCCOc1nc(-c2ccc(Cl)nc2)nc2c1CN(C(=O)c1ncn3ccccc13)CC2 | -6.39 |
| CNC(=N)NCCC[C@H](NC(=O)[C@H](CC(C)C)NC(=O)NNC(=O)[C@H](Cc1ccccc1)NC(=O)[C@H](CO)NC(=O)[C@H](CC(N)=O)NC(=O)[C@@H](Cc1ccncc1)NC(=O)[C@H](N)Cc1ccc(O)cc1)C(=O)N[C@@H](Cc1ccccc1)C(N)=O | 10.4 |
| Nc1cnc(N2CCc3cc(S(=O)(=O)Nc4c(F)cc(Cl)cc4F)cc(N4CCCC4=O)c32)nc1 | -0.37 |
| N#CC1(c2ccccn2)CCN(Cc2cc(C(=O)N3CCCC3)c(=O)n3ccccc23)CC1 | -13.5 |
| COc1cc(N[C@@H]2CCCC[C@]2(O)C(F)(F)F)ccc1F | -17.9 |
| CN(C)C(=O)c1sc2nc(N3CCC(S(C)(=O)=O)CC3)cc(C(F)(F)F)c2c1N | -16.7 |
| Cc1c(NC(=O)c2cc(C(N)=O)nc3cc(F)ccc23)c(C(F)(F)F)nn1Cc1ccc(C#N)cc1 | 29 |
| COc1cccc(NC(=O)c2nc3scc(CN(C)Cc4ccccc4)c3c(=O)[nH]2)c1 | 21 |
| COc1ccc2cc(OCC3(C(=O)O)CN(C(=O)c4ccc(F)cc4)C3)ccc2c1 | -17.7 |
| C[C@H](c1ccnc(Nc2nc3ccc(-c4cc(N(C)C)ncn4)cc3[nH]2)c1)N1CCN(C(=O)CC(F)(F)F)CC1 | -0.75 |
| CC(=O)Nc1ncc(CN2CCC[C@H](Cc3cc(C)nc(C)c3)C2)s1 | -44.6 |
| CN(C)c1ncnc(-c2ccc3nc(Nc4cc(CN5CCN(C(=O)CC(F)(F)F)CC5)ccn4)[nH]c3c2)c1Cl | -2.29 |
| Cc1ncc(-c2cc(Cl)ccc2F)cc1-n1c(=O)n(CC(N)=O)c2ccccc21 | -20.1 |
| CC[C@H](CC(=O)O)n1c(=O)c2ncccc2n(Cc2cn(C)c3cc(C)cc(C)c23)c1=O | -5.56 |
| NS(=O)(=O)c1cc(NC(=O)Cc2ccccc2)ccc1Oc1cccc(Cl)c1 | -3.13 |
| C[C@H](c1ccc(F)cc1)N(Cc1cccc(C(=O)O)c1)C(=O)c1cnc2ccccc2c1 | -19.2 |
| c1ccc(C2CCN(c3cnc4c(N5CCOCC5)nccn34)CC2)cc1 | -19 |
| Cc1ccc(-c2cnc([C@@]3(O)CC[C@H](C(=O)O)C(C)(C)C3)s2)cc1Nc1cccc(C(F)(F)F)n1 | 8.06 |
| O=c1nc(-c2ccccn2)sc2ccccc12 | -0.975 |
| Cc1cc(Nc2nccc(C)n2)cc(-c2cnc([C@@]3(O)CC[C@H](C(=O)O)C(C)(C)C3)s2)c1 | 7.61 |
| C[C@@H](c1cccc(C#N)c1)n1cc(Cl)cc(C(N)=O)c1=N | 0.47 |
| COc1cc(C(=O)O)ncc1C#Cc1ccccc1NS(=O)(=O)c1cccc2c(N(C)C)ccnc12 | -17.4 |
| CN1CCN(c2cnc3c(C4CCN(C(=O)c5ccc(OC(F)(F)F)cc5N)CC4)ncnc3c2)CC1 | -1.34 |
| CN1CCN(c2ccnc(NCCc3ccccc3)n2)CC1 | 82.8 |
| CO[C@H]1CC[C@H](CNc2ccc(S(=O)(=O)NC(=O)c3ccc(N4CCN(CC5=C(c6ccc(Cl)cc6)CC(C)(C)CC5)CC4)cc3Oc3cnc4[nH]ccc4c3)cc2[N+](=O)[O-])CC1 | 4.94 |

Further values, each from its own experiment
| Structure (SMILES) | cell line | assay | setting | scale | GCase activity |
| --- | --- | --- | --- | --- | --- |
| Cc1cccc(/C=N/Nc2cc(N3CCOCC3)nc(OCCc3ccccn3)n2)c1 | L444P/L444P Gaucher fibroblasts | 4-MUG hydrolysis in lysate | 0.5 µM, 72 h, with: ISRIB | reference: vehicle | 236% and 185% and 186% and 190% and 204% and 167% and 196% |
| Ic1ccc(Nc2nc(NCCN3CCOCC3)nc(N3CCOCC3)n2)cc1 | Gaucher fibroblasts L444P/L444P | 4-MUG hydrolysis, cell lysate | 5 µM | reference: DMSO | 165% and 209% and 172% |
| c1ccc2c(-c3nn4c(-c5ccncc5)nnc4s3)c[nH]c2c1 | Gaucher fibroblasts L444P/L444P | 4-MUG hydrolysis, cell lysate | 1 µM | reference: DMSO | 167% and 195% |
| O=C(COc1ccc(Cl)cc1)NC1CCC(NC(=O)COc2ccc(Cl)cc2)CC1 (stereo not shown) | non-Gaucher fibroblasts | 4-MUG hydrolysis, cell lysate | concentration not given | reference: DMSO | 116% and 110% |

Some of these lines once more (set 1):
| target | remaining activity [%] |
| --- | --- |
| PDPK1 (Homo sapiens, UniProt O15530) | 102 |
| MAPKAPK3 (Homo sapiens, UniProt Q16644) | 97.8 |
| MAP4K4 (Homo sapiens, UniProt O95819) | 106 |
| PHKG1 (Homo sapiens, UniProt Q16816) | 95.8 |
